Experimental data gathered from unrelated publications.
Every numbered part comes from another study and shows a few of its results, in no order. Changes are numbered by the printed parent chain.

Set 1
Target: CCNE2, cyclin fold, Cln2 fusion (human)
Method: yeast growth competition, sequencing
Medium: yeast
Setting: weak parent motif
Relative to: not given
Direction: higher = stronger binding
Starting sequence: PKN2 docking peptide (human); VSAVQKLDFSDTM
| Substitution | normalised enrichment score |
| --- | --- |
| S10W | 0.103 |
| D11A | 0.174 |
| K6N | 0.528 |
| T12V | 0.0917 |
| V4T | -0.38 |
| T12K | -0.0483 |
| V1Y | 0.855 |
| D8Y | 0.35 |
| D11K | -0.0585 |
| T12H | 0.125 |
| L7D | -0.692 |
| D8N | 0.144 |
| F9Y | -0.0077 |
| S10Q | -0.059 |
| S10I | 0.298 |
| F9C | -0.408 |
| S2Y | 0.247 |
| S10M | 0.185 |
| V1K | 0.348 |

Set 2
Target: Interferon regulatory factor 5, full length, phosphomimetic (IRF5, Homo sapiens, UniProt Q13568-2, residues 1-514, S451D/S453D/S456D/S462D)
Method: protein-binding microarray
Form: double-stranded DNA, one strand shown
Medium: in vitro
Concentration: 940 nM top
Setting: 60-bp whole probe
Together with: salmon DNA 0.4 mg/ml
Relative to: random background probes
Direction: higher = stronger binding
Shared flanks, not repeated: GCCTAGCAC … GTCTTGATTCGCTTGACGCTGCTG
| Oligonucleotide | fitted relative affinity [z-score] |
| --- | --- |
| TAAGGTATCGGGTATCGGTTAGTGCTA | 6.04 |
| GACTGTTTCGGTTCCGGGACGTGCTAG | 7.03 |
| GACGGTATCGACACGGGGGACGTGCTA | 5.46 |
| TTAGATTTCAGACGGGATTAGTGCTAG | -0.282 |
| TCACTTTCCTTCTTGAAACTGTGCTAG | 1.57 |
| TCACGTATCTTCATTGTACTGTGCTAG | 0.592 |
| TTAGGTTTAGGACTGGGTTAGTGCTAG | -0.274 |
| GACGGACTGCTTATCGTGACGTGCTAG | -0.278 |
| GACGGTATCGAACTGGGGACGTGCTAG | 2.06 |
| GACGGTCTCCGTCTCCTGACGTGCTAG | -0.225 |
| GAGGGTATCGGACTGGGGACGTGCTAG | 1.19 |
| CAACCTTTGTTTTTTTCTATGTGCTAG | 1.45 |
| GACGGACTGGGGTTCGGGACGTGCTAG | -0.41 |
| GACGGTATCGATTTTCGGGACGTGCTA | 6.07 |
| TAAGGTATCGGTATCGGTTAGTGCTAG | 9.41 |
| TTCGGACTGGACACTGGGTTAGTGCTA | -0.212 |
| TTAGGTTCCGGCTTCGGTTAGTGCTAG | 1.34 |
| TCATTTGTTTTTTTCTAACTGTGCTAG | 1.51 |
| GGAGTGGGAAGCTTCGCTCCGTGCTAG | -0.308 |
| AACAGAGGAATGGATACAGAGTGCTAG | 0.231 |
| GACGGTTTCGACTTTCGGGACGTGCTA | 7.38 |
| GACGGACTGCTATTCCTGACGTGCTAG | -0.209 |
| GACGGTATCCTACGGCTGACGTGCTAG | -0.486 |
| TTAGGTTTCGGTATGGGTTAGTGCTAG | 15.6 |
| ACACATCTCACTCTAATCTCGTGCTAG | 1.46 |

Set 3
Target: RNA binding protein fox-1 homolog 2, RRM domain, GST-SBP tag (RBFOX2, Homo sapiens, UniProt O43251-10, residues 100-194)
Method: RNA Bind-n-Seq
Form: RNA
Medium: in vitro
Concentration: 365 nM
Setting: natural RNA segment, single round, ends assumed
Relative to: no-protein control
Direction: higher = stronger binding
Shared flanks, not repeated: GGGAGUUCUACAGUCCGACGAUC … UGGAAUUCUCGGGUGCCAA
Residues (chain): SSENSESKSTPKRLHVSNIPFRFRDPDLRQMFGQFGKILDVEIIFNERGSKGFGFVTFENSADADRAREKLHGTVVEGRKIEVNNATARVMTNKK
| Oligonucleotide | RBNS enrichment (R) |
| --- | --- |
| AAGCAGUGUUAGUGAGAGGUGCAAAGAAUUAUUCUAACAGACACCUGAAAGUAUCUGUAAGCAAUACUAGUAGGUAAGAUUUCACUGUGUGUACACAUACACAUUUGAGA | 0.397 |
| CCUGCACUGCAGCCCAGCCCCGGACAGCUCCAGGAUCCGUGCAGUGGCUGCGCCGCCAGGCCCCAACAAUGGGGACCCUGGGGUGGCUCCUGGCCAAGUGUUCUCUGUUU | 0.225 |
| AAUAAGUUGGAAAACUUAAAUUAAAAAGCAGAACCUGUUUUAUAUUAAGAAGGUCUAGACAUGGACAUUUUCUGUCCUACAAUGCUGACAUACUGUUAUUUCUUCUGGGA | 0.598 |
| CCGUGCCCCUAAAACAGCAGGCAGCUUCCCCCCCACCCUGGUGUGCACACCAGGAGUGUUUGCACAGAAUACUGGGUGUCUUCUGUCUUGAAGAAAGGCAGUGUCCCCGA | 0.564 |
| UUUUUUCCCCUAAAUGUAUUGCAUCAAGCCUCAGUGCUUAUGGAGUGCAGUGGUCUUCAUCUUCCCCAACUUGCUUCUCAGAGCUGGGAUGUAUUCCAGAGCCUGAUGUU | 0.592 |
| CAAAGGACAUCCACAUCAGUUGGAAGACUUUGAGUUUUGUUCUUAGGAAACCCACUUUAGUUGAAUGUGUUAAGUGAAAUACUUGUACUUCCCUCCCCCUCUGUCAACUG | 0.792 |
| AAUCAAAACCCUCAGAGGGUCCUGAUGAGCAGAGAGUCUUUCCCUGGCCUUUCGAGCUUCAGAGAUGGGAGUCUGAUGGCAGUGUCCUGCUUGGAGAAGGCCCAGGGGUG | 0.325 |
| CCAUCUUCCCAGGGCAGGACCACAGUGGUAAAUCCUAAGGAUGGCCCAGGUGGCCUGUGUGAGCGCCACUAGGCACCAGAAGGUGGCGCUCACGCUCUCGUCCUUAGGGA | 0.39 |
| UGUUUUUGCUUUUCCUUCAGGGUUUUAUUUUUGACUGUUUUGUUUUCUUGUUGGCCAUUUCUGUAUUGCUGGCAUCUGUGCUAAGCUUUACAGUGGCAAAAAUAAUGACA | 1.46 |
| AAAACAAUGUGAUUCAUUCCAAAGUAACAGAAGGCUAUUUGUAAGAAAGAUAAAGGCUUGUGAACAAAGAAAGCUAAGCUGUUGUACAUAUUGUAGUUGGCUGUGCAUGG | 29.1 |
| ACCAACAUGGAGAAACCCUGUCUCUAUUAAAAAUACAAAAAAAAAAAAAAAAAAAAUAGCCGGGCAUGGUGGCGCAAGCCUGUAAUCCCAGCUACUCAGGAGGCUGAGGC | 1.43 |
| CCCCAAUUAAAUGUUGUCCUUAUAAGAGUUGCCUUGGUCACGGUGUCUGUUCACAGCAGUAAAAACUUAACUAAGACACAUACUGCUCUGAAAAUAAAAUAACUUUCUAU | 0.505 |

Set 4
Target: Histone acetyltransferase KAT6A, both winged helices, GST fusion (KAT6A, Homo sapiens, UniProt Q92794, residues 1-181)
Method: protein binding microarray
Form: double-stranded DNA, one strand shown
Medium: in vitro
Concentration: not given
Setting: 8-mer, flanks averaged, mean of 2 arrays, mostly near background
Relative to: not given
Direction: higher = stronger binding
Residues (chain): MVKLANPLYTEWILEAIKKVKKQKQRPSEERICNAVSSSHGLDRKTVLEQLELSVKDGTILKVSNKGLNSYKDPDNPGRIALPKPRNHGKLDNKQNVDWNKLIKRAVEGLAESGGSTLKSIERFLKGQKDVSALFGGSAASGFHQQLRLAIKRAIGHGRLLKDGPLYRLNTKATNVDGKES
| Oligonucleotide | E-score |
| --- | --- |
| ATAGATCA | -0.0752 |
| CCCCTCAG | -0.157 |
| ACTGAGCC | -0.0695 |
| CAATGTGC | -0.0625 |
| GCAATATA | -0.108 |
| CAAATTGG | -0.15 |
| GGACACAA | -0.0649 |
| ATGGTGAG | -0.115 |
| AATTCATC | -0.0465 |
| AGATGGCT | -0.123 |
| ACTGCCCT | -0.0101 |
| CCACCAAA | -0.236 |
| TACCAATA | -0.134 |
| AGCACAGC | -0.0544 |
| GACTCCAC | -0.117 |
| GACGATCA | -0.0496 |

For quick reference, copied from above (set 2):
| Oligonucleotide | fitted relative affinity [z-score] |
| --- | --- |
| TAAGGTATCGGTATCGGTTAGTGCTAG | 9.41 |
| TTCGGACTGGACACTGGGTTAGTGCTA | -0.212 |
| TTAGGTTCCGGCTTCGGTTAGTGCTAG | 1.34 |
| TCATTTGTTTTTTTCTAACTGTGCTAG | 1.51 |
| GGAGTGGGAAGCTTCGCTCCGTGCTAG | -0.308 |
| AACAGAGGAATGGATACAGAGTGCTAG | 0.231 |
| GACGGTTTCGACTTTCGGGACGTGCTA | 7.38 |
| GACGGACTGCTATTCCTGACGTGCTAG | -0.209 |
| GACGGTATCCTACGGCTGACGTGCTAG | -0.486 |
